Published values collected from several papers.
A part holds a random share of what one study measured. Substitutions count along the parent as printed.

Sample 1 — technique: DHFR PCA, deep sequencing; matrix: yeast; with: (+)-ABA 0 µM; reference: wild-type fitted maximum; direction: higher = stronger binding
Target: ABI1, truncated, D143A, DHFR fusion (Arabidopsis thaliana)
Setting: methotrexate growth selection, single substitutions
Parent: PYL1, truncated, DHFR fusion (Arabidopsis thaliana); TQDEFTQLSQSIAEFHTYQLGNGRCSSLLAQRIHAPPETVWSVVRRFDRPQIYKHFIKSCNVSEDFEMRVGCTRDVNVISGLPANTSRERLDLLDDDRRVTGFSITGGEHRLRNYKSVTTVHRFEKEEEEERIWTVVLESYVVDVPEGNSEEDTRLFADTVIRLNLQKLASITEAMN; partner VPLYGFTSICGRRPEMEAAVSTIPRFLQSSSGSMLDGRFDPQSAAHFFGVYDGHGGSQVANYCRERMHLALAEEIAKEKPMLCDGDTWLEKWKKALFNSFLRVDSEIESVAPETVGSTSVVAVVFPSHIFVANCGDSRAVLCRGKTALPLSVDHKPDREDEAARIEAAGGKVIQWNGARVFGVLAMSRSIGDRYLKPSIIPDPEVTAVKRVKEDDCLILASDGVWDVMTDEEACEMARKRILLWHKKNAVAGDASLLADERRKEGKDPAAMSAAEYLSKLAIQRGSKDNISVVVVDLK
Substitution	relative binding score
L166E	8.73%
L8K	-7.55%
L169Y	-7.7%
V78N	38.9%
L164A	13.9%
C60D	-11.9%
T1E	23.8%
T135M	-9.26%

Sample 2 — Molecule: SNRNP200 (Homo sapiens, UniProt O75643); technique: cross-linking MS; matrix: cell fractions; with: DSSO
partner	cross-linked residues
ZMAT2 (Homo sapiens, UniProt Q96NC0)	T180 to K64
ELL3 (Homo sapiens, UniProt Q9HB65)	K971 to Y356
PRPF6 (Homo sapiens, UniProt O94906)	K695 to K395

Sample 3 — technique: Spec-seq; molecule type: double-stranded DNA, one strand shown; matrix: in vitro; concentration: not given; setting: whole probe, mean of replicates; reference: not given; direction: lower = stronger binding; all sequences stand within: GAGTCGTCTCGTCAGCAC … CCGTAGAGCACTCAGGTC
Target: POU domain, class 5, transcription factor 1, POU domain (Pou5f1, Mus musculus, UniProt P20263, residues 131-289)
Sequence of UniProt P20263 (131-289, looked up): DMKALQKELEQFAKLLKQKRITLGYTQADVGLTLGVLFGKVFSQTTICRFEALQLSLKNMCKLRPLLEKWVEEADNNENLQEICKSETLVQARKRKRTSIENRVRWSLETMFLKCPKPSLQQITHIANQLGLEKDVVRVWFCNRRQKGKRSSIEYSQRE
Sequence	relative binding energy
ACAATAAT	0.182 ln ratio
ATAGCAAT	0.419 ln ratio
AGGATAAT	0.564 ln ratio
TGCTTAAT	0.488 ln ratio
ATGCCGCG	0.889 ln ratio
ACTCTAAT	0.493 ln ratio
ATTACCAT	-2 ln ratio
CCCATAAT	0.132 ln ratio

Single results of other studies — parent: viral docking peptide; CKVKRKLFGSENI
Substitution	target	test	test system	setting	how to read	quantity	result
CAVKRKLFGSENI [K2A]	CCNA2, cyclin fold, Cln2 fusion (human)	yeast growth competition, sequencing	yeast	strong parent motif	reference: not given, higher = stronger binding	normalised enrichment score	4.16

For quick reference, copied from above (sample 2):
partner	cross-linked residues
PRPF6 (Homo sapiens, UniProt O94906)	K695 to K395
ZMAT2 (Homo sapiens, UniProt Q96NC0)	T180 to K64
